Published values collected from several papers.
Each numbered part is a random draw from the data of one study; scales do not carry over between parts.

Sample 1
Target: Interferon regulatory factor 3, full length, phosphomimetic (IRF3, Homo sapiens, UniProt Q14653, residues 1-427, S386D/S396D/S398D/S402D/T404D/S405D)
Sequence of UniProt Q14653 (whole entry, unmodified, looked up): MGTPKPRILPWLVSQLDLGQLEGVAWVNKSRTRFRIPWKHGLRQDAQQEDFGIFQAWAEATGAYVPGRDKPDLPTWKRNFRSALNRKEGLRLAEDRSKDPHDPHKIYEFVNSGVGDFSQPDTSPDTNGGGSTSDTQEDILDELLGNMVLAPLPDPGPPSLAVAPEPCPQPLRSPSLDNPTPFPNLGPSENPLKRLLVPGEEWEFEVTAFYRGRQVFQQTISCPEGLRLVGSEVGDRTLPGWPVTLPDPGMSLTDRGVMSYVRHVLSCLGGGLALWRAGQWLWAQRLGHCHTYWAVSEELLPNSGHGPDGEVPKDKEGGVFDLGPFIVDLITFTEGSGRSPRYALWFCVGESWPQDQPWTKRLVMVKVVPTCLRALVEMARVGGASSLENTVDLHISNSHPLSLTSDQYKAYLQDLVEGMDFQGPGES
Method: protein-binding microarray
Molecule type: double-stranded DNA, one strand shown
Medium: in vitro
Concentration: 2540 nM top
Setting: 60-bp whole probe
Together with: salmon DNA 0.4 mg/ml
Reference: random background probes
Direction: higher = stronger binding
Constant ends, left off below: GCCTAGCAC … GTCTTGATTCGCTTGACGCTGCTG
Strand | fitted relative affinity [z-score]
TTAGCTTTCCTTATCCTTTAGTGCTAG | 5.25
TTAGGTCGCGGTTTCGGTTAGTGCTAG | 4.64
TTAGATTTCAGACAGGATTAGTGCTAG | 0.23
TCATAACTCATTCTCCAACTGTGCTAG | 1.61
GACGGTTTCGGTAGCGGGACGTGCTAG | 5.65
ACAGCAAGAGCTCAACGGGGGTGCTAG | -0.383
GGCGGACTGCTACTGCTGACGTGCTAG | -0.846
CAGAAAATGGAAACTCGTATGGTGCTA | 1.93
TCACCTTCCCCTCTAGGACTGTGCTAG | 1.45
TCAGTTTTCAGTTTCACACTGTGCTAG | 5.16
TTAGGTATCGCCTATCGGTTAGTGCTA | 0.287
TTAGATTTCGGGTCTGGATTAGTGCTA | 1.94
TTAGGTTCCCTTTTCCTTTAGTGCTAG | 7.76
CTGTGGGAGGCCCGCGGGAGGTGCTAG | -1.3
TGACCTGCTCCAAACACCTCGTGCTAG | 0.452

Sample 2
Target: Histone acetyltransferase KAT6A, both winged helices, GST fusion (KAT6A, Homo sapiens, UniProt Q92794, residues 1-181)
Method: protein binding microarray
Molecule type: double-stranded DNA, one strand shown
Medium: in vitro
Concentration: not given
Setting: 8-mer, flanks averaged, mean of 2 arrays, mostly near background
Reference: not given
Direction: higher = stronger binding
Residues (chain): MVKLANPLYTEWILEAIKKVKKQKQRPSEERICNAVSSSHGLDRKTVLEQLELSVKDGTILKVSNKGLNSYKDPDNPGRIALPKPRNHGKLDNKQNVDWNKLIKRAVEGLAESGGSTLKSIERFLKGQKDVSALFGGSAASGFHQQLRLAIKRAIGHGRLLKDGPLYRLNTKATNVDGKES
Strand | E-score
GAAAGCCC | -0.06
CTTAATGC | -0.0372
GAGGCTAA | -0.146
CCCAAGCG | 0.0404
ACCAAAAG | -0.0038
GCTGCGTA | 0.0867
GGAAGACA | -0.039
AACCTAAG | -0.0981
AACGACGA | -0.0999
CGATTAAA | 0.0391
CGACGTCA | 0.135
AGGGTGGG | -0.154
ATATATTC | 0.0223
AGGCGTCA | 0.0294

Sample 3
Target: TAR DNA-binding protein 43, full length, His tag (TARDBP, Homo sapiens, UniProt Q13148, residues 1-414)
Method: RNA Bind-n-Seq
Molecule type: RNA
Medium: in vitro
Concentration: 20 nM
Setting: 6-mer, flanks averaged, single round
Together with: 150 mM LiCl
Reference: input library
Direction: higher = stronger binding
Strand | 6-mer enrichment (R)
GCUUGC | 0.962
GUUACU | 0.922
GUAGAU | 1.05
AUGGAA | 0.964
GACAGU | 0.917
CCACCU | 0.963
AAACCC | 0.907
AGGCGU | 1.01
GCGUCG | 1.1
UAACAU | 0.881
CUCCGC | 0.93
GUUCAC | 0.87
AUCACC | 0.879

Single results of other studies
Substance | target | test | test system | setting | scale | quantity | result
PhoQ, residues 284 288 289 292 302 303 SSTLLI | PhoP, residues 12 14 15 18 19 NQFFI (Escherichia coli, UniProt P23836) | Sort-seq, refers to: YFP reporter | E. coli | PhoQ-PhoP variant library, together with: 10 µM Mg2+ | reference: high Mg2+ state, higher = stronger signaling | fold induction | 14.4

Excerpt of the above (sample 1):
Strand | fitted relative affinity [z-score]
TTAGGTATCGCCTATCGGTTAGTGCTA | 0.287
TTAGGTCGCGGTTTCGGTTAGTGCTAG | 4.64
TTAGATTTCAGACAGGATTAGTGCTAG | 0.23
GACGGTTTCGGTAGCGGGACGTGCTAG | 5.65
TTAGCTTTCCTTATCCTTTAGTGCTAG | 5.25
